Measured values pooled from the literature.
Parts stem from different laboratories: compare values within a part only.
Sequence of UniProt Q712K3 (whole entry, looked up): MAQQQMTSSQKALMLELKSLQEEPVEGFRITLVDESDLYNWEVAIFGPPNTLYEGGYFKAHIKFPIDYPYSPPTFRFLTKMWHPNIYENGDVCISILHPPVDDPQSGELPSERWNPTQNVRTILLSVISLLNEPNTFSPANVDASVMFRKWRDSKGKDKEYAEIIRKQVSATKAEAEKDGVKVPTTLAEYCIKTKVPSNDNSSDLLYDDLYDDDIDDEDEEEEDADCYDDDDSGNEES
Sequence of UniProt Q9NPD8 (whole entry, looked up): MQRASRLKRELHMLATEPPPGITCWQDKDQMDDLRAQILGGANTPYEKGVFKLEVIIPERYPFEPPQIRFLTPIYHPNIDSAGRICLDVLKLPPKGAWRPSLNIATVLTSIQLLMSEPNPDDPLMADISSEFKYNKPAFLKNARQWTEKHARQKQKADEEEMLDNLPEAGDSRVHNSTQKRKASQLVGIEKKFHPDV
Sequence of UniProt Q9H832 (whole entry, looked up): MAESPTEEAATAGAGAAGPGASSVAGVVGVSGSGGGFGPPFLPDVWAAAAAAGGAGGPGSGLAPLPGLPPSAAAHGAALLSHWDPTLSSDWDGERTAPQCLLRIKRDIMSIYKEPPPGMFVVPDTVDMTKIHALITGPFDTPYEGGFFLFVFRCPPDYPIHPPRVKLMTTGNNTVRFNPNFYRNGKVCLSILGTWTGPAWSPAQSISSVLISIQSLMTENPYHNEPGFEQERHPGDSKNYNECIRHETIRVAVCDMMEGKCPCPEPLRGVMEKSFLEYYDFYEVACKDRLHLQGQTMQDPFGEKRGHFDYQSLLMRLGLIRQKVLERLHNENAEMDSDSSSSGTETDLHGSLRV
Sequence of UniProt Q9Y385 (whole entry, looked up): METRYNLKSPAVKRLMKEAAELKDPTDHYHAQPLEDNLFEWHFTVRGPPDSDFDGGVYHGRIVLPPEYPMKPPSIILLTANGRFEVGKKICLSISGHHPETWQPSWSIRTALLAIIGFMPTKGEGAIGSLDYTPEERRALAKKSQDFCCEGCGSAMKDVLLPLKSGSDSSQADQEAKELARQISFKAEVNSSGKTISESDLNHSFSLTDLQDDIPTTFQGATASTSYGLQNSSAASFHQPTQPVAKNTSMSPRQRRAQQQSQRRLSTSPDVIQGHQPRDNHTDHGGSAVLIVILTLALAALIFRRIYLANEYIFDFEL
Sequence of UniProt Q969T4 (whole entry, looked up): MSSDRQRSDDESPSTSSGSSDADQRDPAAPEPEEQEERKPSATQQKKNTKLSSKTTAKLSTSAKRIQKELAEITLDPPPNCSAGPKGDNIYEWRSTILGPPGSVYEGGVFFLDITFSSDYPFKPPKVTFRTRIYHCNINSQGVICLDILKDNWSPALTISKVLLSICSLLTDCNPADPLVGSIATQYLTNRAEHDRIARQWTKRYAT
Sequence of UniProt P61081 (whole entry, looked up): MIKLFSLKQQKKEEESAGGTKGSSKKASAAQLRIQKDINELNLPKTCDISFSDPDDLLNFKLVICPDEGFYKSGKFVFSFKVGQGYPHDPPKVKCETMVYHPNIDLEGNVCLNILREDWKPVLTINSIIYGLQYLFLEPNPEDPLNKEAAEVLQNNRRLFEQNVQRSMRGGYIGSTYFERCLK
Sequence of UniProt P51668 (whole entry, looked up): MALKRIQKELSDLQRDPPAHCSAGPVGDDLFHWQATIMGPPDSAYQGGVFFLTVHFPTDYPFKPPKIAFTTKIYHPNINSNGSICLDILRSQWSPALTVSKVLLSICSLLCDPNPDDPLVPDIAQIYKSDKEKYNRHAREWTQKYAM

Set 1 — technique: protein-binding microarray; form: double-stranded DNA, one strand shown; sample: in vitro; concentration: 0.8 µM; setting: whole 60-bp probe, no competitor; reading: higher = stronger binding; shared flanks, not repeated: … GTCTTGATTCGCTTGACGCTGCTG
Target: Centromere-binding protein 1, full length, N-terminal tag (CBF1, Saccharomyces cerevisiae, UniProt P17106, residues 1-351)
Sequence of UniProt P17106 (whole entry, looked up): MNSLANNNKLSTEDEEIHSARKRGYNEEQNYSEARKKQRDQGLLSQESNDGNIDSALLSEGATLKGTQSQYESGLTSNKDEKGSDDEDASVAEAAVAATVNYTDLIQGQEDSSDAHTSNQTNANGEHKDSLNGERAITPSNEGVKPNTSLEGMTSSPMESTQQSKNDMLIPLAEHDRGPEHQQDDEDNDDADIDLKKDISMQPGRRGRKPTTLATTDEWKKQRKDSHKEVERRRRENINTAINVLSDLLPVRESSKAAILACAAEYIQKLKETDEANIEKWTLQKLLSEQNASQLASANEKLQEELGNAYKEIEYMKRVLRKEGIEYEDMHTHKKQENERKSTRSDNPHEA
Oligonucleotide	fluorescence intensity
TGTACGAAGCTATCCTTCGTGCCTATAGTAGTTAGG	497 a.u.
CTAGCTAACCAACGTGTTGTATATGAAACCCATTTC	570 a.u.
GAACCAAACTTTTAGTACGTGCCACATACACGCTAG	562 a.u.
GAACGATCTGTTGGTGGTGTTCTAAAGTGAAGGTAG	554 a.u.
GAAATGCGTTCCAGTTGCATCATGTGTATTGTTTAG	969 a.u.
CTAGATCCCATCCAACACACGTGTTAAAATGACTTC	4710 a.u.
CCTAACTACTATACAAGCGTGGGATAGCTTCGTACA	519 a.u.
CTAAAATTCCCACATCACGTGAATCAGGAGGCGTTC	12500 a.u.
CTAATAAATCATAATCACGTAAAGCCACCGAAATTC	581 a.u.
GAACTTCCTGGACCTCATGTGATACTATACCAGTAG	1010 a.u.
CTATATGCTAAAATTCACGTGTACGCATTTCAATTC	2920 a.u.
CTAGAAGCGTCTTGACACGTTTTCAAAAAAGGATTC	661 a.u.
GAATATGGTTAATGTCACGAGATGAATTGTTATTAG	1910 a.u.
CTATGAGATTCCCGACATCAGTAAGACATAGTATTC	507 a.u.
CTAACTAAAACTATGTGCGTGATAAATGGTTCTTTC	616 a.u.
GAATTTCTATATTTACATGTGGGAAATGTGGTTTAG	511 a.u.
CTACCCTGCATAGTTGTCACGGTTTGGACTATATTC	634 a.u.
GAAATTAGTAAGATCAACATCAGGGAGGGAACTTAG	507 a.u.
GAACTTATAACCACAAACGTGTATATTAAGAAATAG	584 a.u.

Set 2 — technique: protein binding microarray; form: double-stranded DNA, one strand shown; sample: in vitro; concentration: not given; baseline: not given; reading: higher = stronger binding
Target: Histone acetyltransferase KAT6A, winged helix 1, GST fusion (KAT6A, Homo sapiens, UniProt Q92794, residues 1-85)
Setting: 8-mer, flanks averaged, mean of 2 arrays, mostly near background
Target sequence (chain): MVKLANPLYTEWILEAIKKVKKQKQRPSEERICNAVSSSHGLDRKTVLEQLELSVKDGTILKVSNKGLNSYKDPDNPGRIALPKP
Oligonucleotide	E-score
GTCCTACA	-0.00857
GAGGACCC	0.00331
GCCGTAGC	0.385
GAGTATAA	-0.00859
CAATGCCA	-0.184
TTACAAAA	0.00169
GTTGACTA	0.000595
TCAGACCA	-0.172
GCACAAAA	-0.052
ACATGCCC	-0.00313
GCGACCAA	0.0491
CGGAGTCC	0.0365
ATCGCGTA	0.136
GTTTCTTA	-0.0761
CACTAGGG	-0.0556
CGCAAAAG	0.222
AGCGCAAA	0.141
CGAAGCCG	0.32
ACCGTAAA	0.161
ATCCATTC	-0.201
CGGCTTGC	0.33
CCCCAAGA	-0.264
ACAATCCA	-0.0663
CTACCGCC	0.284
ATTCAGCG	0.129

Set 3 — technique: yeast two-hybrid; form: peptide; sample: yeast; setting: mostly zero background; baseline: not given; reading: higher = stronger interaction
Molecule: ANYISAHTKDCPKCNICIEKNGGCNHMQCSKCKHDFCWMCLGDWKTHGSE (ARIH2 RING domain (UniProt O95376))
target	lacZ reporter activity
UBE2J1 UBC core domain (UniProt Q9Y385)	0
UBE2E3 UBC core domain (UniProt Q969T4)	0
BIRC6 UBC core domain (UniProt Q9NR09)	0
UBE2R2 UBC core domain (UniProt Q712K3)	0
UBE2D1 UBC core domain (UniProt P51668)	0
UBE2Z UBC core domain (UniProt Q9H832)	14600
UBE2T UBC core domain (UniProt Q9NPD8)	0
UBE2M UBC core domain (UniProt P61081)	0

Set 4 — technique: RNA Bind-n-Seq; form: RNA; sample: in vitro; concentration: 200 nM; setting: whole 134-nt RNA, ends assumed; added: 150 mM LiCl; baseline: input library; reading: higher = stronger binding; library: 7-deaza-guanosine replaces G
Target: Fragile X messenger ribonucleoprotein 1, C-terminal low-complexity region (Fmr1, Mus musculus, UniProt P35922)
Shared flanks, not repeated: GGGAGUUCUACAGUCCGACGAUC … UGGAAUUCUCGGGUGUCAAGG
Oligonucleotide	log2 enrichment
UGGAAUAAGCCUGGUGCUUUCUGGCUAUGUUUGUCAUAGGCUGACCUGGAUAUCACCGAAAUAAACAAACUAACAGCAGAAGCUAUUCAG	-1.83
UACCCUCGUGCCCCUGUUUUUCCUGGCCGUGGUAGUUACUCAAACAGAGGGAACUACAACAGAGGUGGAAUGCCCAACAGAGGGAACUAC	-1.28
CUCAAGUCCUGUGCUACACAUCGUAUGUACCGAAUCGGGAGGGAGGGAAAGGGAAAGUAUUAUGUUACGCCGUUCGGAUCUGCACUUCCA	-0.345
GCAGGUAGUAAAAACAAAUGGAAAUGCUUCGGAUAGUGGCAGGGGUGGGGGUUGCUAAGGAAAGGGUGGGAUGGGAGUGGGUAAAGAGUU	1.57
ACCAUGCAGGUGGGCAUCUUUGGGAAGUGGGGCAAGGGGGGGAUAGGGAGGGGGGUAACACUUUGGGAACAAGUGGUCCCAGGUCGUUUC	1.66
ACCAUGCAGGUGGGCAUCUUAAAGAAGUGGGGCAAGGGGGGGAUAGGGAGGGGGGUAACACUUUGGGAACAGGUGGUCCCAGGUCGUUUC	1.3
GCUGUUCUUGCCUUAGCUGCAUCUUGGACCUCAAGACAAGUAGGAGAACGGACGUUGACCGGUACGGUAAUAGACAGUGGAGAUGGUGUC	-2.73
UUAGUGAAUGUAUAGAAGGAGUAAAGGUAGAGCACAAUCCUGACCUGUCAGUUACUGUCAGCACCAAAAAAUCCCACCAGACAUGGACCU	1.16

Some of these lines once more (set 1):
Oligonucleotide	fluorescence intensity
GAAATGCGTTCCAGTTGCATCATGTGTATTGTTTAG	969 a.u.
CTAGATCCCATCCAACACACGTGTTAAAATGACTTC	4710 a.u.
CCTAACTACTATACAAGCGTGGGATAGCTTCGTACA	519 a.u.
CTAAAATTCCCACATCACGTGAATCAGGAGGCGTTC	12500 a.u.
